Results pooled from the literature.
± marks the error that the study gave.
Medium: plasma

The Cmax of `COC(=O)N[C@H](C(=O)N1CCC[C@H]1C(=O)Nc1ccc([C@@H]2CC[C@@H](c3ccc(NC(=O)[C@@H]4CCCN4C(=O)[C@@H](NC(=O)OC)C(C)C)cc3)N2c2ccc(C(C)(C)C)cc2)cc1)C(C)C` is reported as 124 ng/mL (healthy human volunteers; oral, dose not given, together with: pravastatin plus 2D regimen).
The Cmax of `CCCCCOc1ccc(-c2ccc(-c3ccc(C(=O)N[C@H]4C[C@@H](O)[C@@H](O)NC(=O)[C@@H]5[C@@H](O)[C@@H](C)CN5C(=O)[C@H]([C@@H](C)O)NC(=O)[C@H]([C@H](O)[C@@H](O)c5ccc(O)cc5)NC(=O)[C@@H]5C[C@@H](O)CN5C(=O)[C@H]([C@@H](C)O)NC4=O)cc3)cc2)cc1` is reported as 2900 ng/mL (human; intravenous, 3 mg/kg loading dose, day 1).
`CCCCCOc1ccc(-c2cc(-c3ccc(C(=O)N[C@H]4C[C@@H](O)[C@@H](O)NC(=O)[C@@H]5[C@@H](O)[C@@H](C)CN5C(=O)[C@H]([C@H](O)CC(N)=O)NC(=O)[C@H]([C@H](O)[C@@H](O)c5ccc(O)c(OS(=O)(=O)O)c5)NC(=O)[C@@H]5C[C@@H](O)CN5C(=O)[C@H]([C@@H](C)O)NC4=O)cc3)no2)cc1` has a Cmax of 20100 ng/mL (human paediatric patients 2 to 5 years; intravenous, 4.5 mg/kg once daily, day 7, geometric mean).
For `Oc1ccc2ccc3c4ccccc4cc4ccc1c2c43`, the Cmax was 3.12 ± 2.83 fg BaP equivalents/mL (UPLC-AMS; human; oral, 50 ng of [14C]-BaP).
`CC[C@H](C)[C@H](NC(=O)[C@H](CC(C)C)NC(=O)[C@H](Cc1c[nH]c2ccccc12)NC(=O)[C@H](CCC(N)=O)NC(=O)[C@@H](NC(=O)[C@H](Cc1ccccc1)NC(=O)[C@H](C)NC(=O)[C@H](CCCCNC(=O)COCCOCCNC(=O)COCCOCCNC(=O)CC[C@H](NC(=O)CCCCCCCCCCCCCCCCCCC(=O)O)C(=O)O)NC(=O)[C@H](CCC(N)=O)NC(=O)[C@H](C)NC(=O)[C@@H](NC(=O)[C@H](CCCCN)NC(=O)[C@H](CC(=O)O)NC(=O)[C@H](CC(C)C)NC(=O)C(C)(C)NC(=O)[C@@H](NC(=O)[C@H](CO)NC(=O)[C@H](Cc1ccc(O)cc1)NC(=O)[C@H](CC(=O)O)NC(=O)[C@H](CO)NC(=O)[C@@H](NC(=O)[C@H](Cc1ccccc1)NC(=O)[C@@H](NC(=O)CNC(=O)[C@H](CCC(=O)O)NC(=O)C(C)(C)NC(=O)[C@@H](N)Cc1ccc(O)cc1)[C@@H](C)O)[C@@H](C)O)[C@@H](C)CC)[C@@H](C)CC)C(C)C)C(=O)N[C@@H](C)C(=O)NCC(=O)NCC(=O)N1CCC[C@H]1C(=O)N[C@@H](CO)C(=O)N[C@@H](CO)C(=O)NCC(=O)N[C@@H](C)C(=O)N1CCC[C@H]1C(=O)N1CCC[C@H]1C(=O)N1CCC[C@H]1C(=O)N[C@@H](CO)C(N)=O` gave a Cmax of 526 ng/mL (human, moderate hepatic impairment; subcutaneous, 5 mg single dose, geometric LSM, weight-adjusted).
With `COc1ccc(C[C@@H]2NC(=O)[C@H]([C@@H](C)O)NC(=O)[C@@H]3[C@@H]4CCN3C(=O)[C@@H]3Cc5cn(c6ccc(F)cc56)CCCCCCN(Cc5ccc(cc5)CCNC(=O)[C@]5(C)CCCN5C2=O)C(=O)CCC(=O)N[C@@H](C)C(=O)N[C@H](CNC(=O)CCCCC[N+](C)(C)C)C(=O)N[C@@H](Cc2cccc(c2)CNC(=O)CO4)C(=O)N3)cc1` the Cmax was 5.21 nM (fasted healthy humans; oral, 10 mg single dose, with 1800 mg Labrasol, geometric mean).
The Cmax of `CCCNS(=O)(=O)Nc1ncnc(OCCOc2ncc(Br)cn2)c1-c1ccc(Br)cc1` is reported as 208 ng/mL (healthy adult humans, both sexes; oral, 10/40 mg fixed-dose combination, single dose, fasted, food-effect part).
`CCCCCOc1ccc(-c2ccc(-c3ccc(C(=O)N[C@H]4C[C@@H](O)[C@@H](OCC[N+](C)(C)C)NC(=O)[C@@H]5[C@@H](O)[C@@H](C)CN5C(=O)[C@H]([C@@H](C)O)NC(=O)[C@H]([C@H](O)[C@@H](O)c5ccc(O)cc5)NC(=O)[C@@H]5C[C@@H](O)CN5C(=O)[C@H]([C@@H](C)O)NC4=O)cc3)cc2)cc1` gave a Cmax of 105 ng/mL (healthy adult humans; subcutaneous, 10 mg, median).
`Cc1cnc(C(=O)N[C@H]2CCCCC/C=C\[C@@H]3C[C@@]3(C(=O)NS(=O)(=O)C3CC3)NC(=O)[C@@H]3C[C@@H](Oc4nc5ccccc5c5ccccc45)CN3C2=O)cn1` gave a Cmax of 2020 ng/mL (healthy human volunteers; oral, dose not given, alone, omeprazole interaction study).
The Cmax of `CC[C@@]1(O)C(=O)OCc2c1cc1n(c2=O)Cc2cc3c(CN(C)C)c(O)ccc3nc2-1` is reported as 12.4 ng/mL (human patients; oral, 2.5 mg daily for 5 days, geometric mean, together with: pazopanib 800 mg daily).

Some of these lines once more:
With `COc1ccc(C[C@@H]2NC(=O)[C@H]([C@@H](C)O)NC(=O)[C@@H]3[C@@H]4CCN3C(=O)[C@@H]3Cc5cn(c6ccc(F)cc56)CCCCCCN(Cc5ccc(cc5)CCNC(=O)[C@]5(C)CCCN5C2=O)C(=O)CCC(=O)N[C@@H](C)C(=O)N[C@H](CNC(=O)CCCCC[N+](C)(C)C)C(=O)N[C@@H](Cc2cccc(c2)CNC(=O)CO4)C(=O)N3)cc1` the Cmax was 5.21 nM (fasted healthy humans; oral, 10 mg single dose, with 1800 mg Labrasol, geometric mean).
The Cmax of `CCCNS(=O)(=O)Nc1ncnc(OCCOc2ncc(Br)cn2)c1-c1ccc(Br)cc1` is reported as 208 ng/mL (healthy adult humans, both sexes; oral, 10/40 mg fixed-dose combination, single dose, fasted, food-effect part).
